Experimental data gathered from unrelated publications.
Lines come from different studies, so protocols differ. Values joined by “and” are separate records of one study, mostly repeats; a detail may differ. ± gives the spread as reported.
CASP3: Caspase-3 (CASP3, Homo sapiens, UniProt P42574)
Sequence of UniProt P42574 (whole entry, looked up): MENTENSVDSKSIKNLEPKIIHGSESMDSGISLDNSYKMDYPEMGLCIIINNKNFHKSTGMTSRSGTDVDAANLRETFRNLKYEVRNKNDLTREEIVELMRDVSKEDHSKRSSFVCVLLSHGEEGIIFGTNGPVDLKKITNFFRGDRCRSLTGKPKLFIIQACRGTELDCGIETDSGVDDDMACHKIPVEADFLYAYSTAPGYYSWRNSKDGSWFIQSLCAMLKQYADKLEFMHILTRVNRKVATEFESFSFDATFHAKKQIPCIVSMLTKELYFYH
CHRM5: Muscarinic acetylcholine receptor M5 (CHRM5, Homo sapiens, UniProt P08912)
Sequence of UniProt P08912 (whole entry, looked up): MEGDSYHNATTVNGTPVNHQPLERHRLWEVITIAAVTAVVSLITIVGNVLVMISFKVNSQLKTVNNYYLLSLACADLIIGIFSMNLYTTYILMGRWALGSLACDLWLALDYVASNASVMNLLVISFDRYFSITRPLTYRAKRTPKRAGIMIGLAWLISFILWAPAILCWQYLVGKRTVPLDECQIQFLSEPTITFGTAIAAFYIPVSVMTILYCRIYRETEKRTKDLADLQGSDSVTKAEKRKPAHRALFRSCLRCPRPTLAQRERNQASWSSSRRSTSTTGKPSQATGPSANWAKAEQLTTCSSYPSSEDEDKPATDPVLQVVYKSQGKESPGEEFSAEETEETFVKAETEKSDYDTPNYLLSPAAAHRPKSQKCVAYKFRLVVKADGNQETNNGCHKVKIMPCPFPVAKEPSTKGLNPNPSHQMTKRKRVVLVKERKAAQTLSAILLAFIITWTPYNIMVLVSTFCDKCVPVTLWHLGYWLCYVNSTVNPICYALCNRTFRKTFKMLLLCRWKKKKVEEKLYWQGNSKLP
CHRM3: Muscarinic acetylcholine receptor M3 (CHRM3, Homo sapiens, UniProt P20309)
Sequence of UniProt P20309 (whole entry, looked up): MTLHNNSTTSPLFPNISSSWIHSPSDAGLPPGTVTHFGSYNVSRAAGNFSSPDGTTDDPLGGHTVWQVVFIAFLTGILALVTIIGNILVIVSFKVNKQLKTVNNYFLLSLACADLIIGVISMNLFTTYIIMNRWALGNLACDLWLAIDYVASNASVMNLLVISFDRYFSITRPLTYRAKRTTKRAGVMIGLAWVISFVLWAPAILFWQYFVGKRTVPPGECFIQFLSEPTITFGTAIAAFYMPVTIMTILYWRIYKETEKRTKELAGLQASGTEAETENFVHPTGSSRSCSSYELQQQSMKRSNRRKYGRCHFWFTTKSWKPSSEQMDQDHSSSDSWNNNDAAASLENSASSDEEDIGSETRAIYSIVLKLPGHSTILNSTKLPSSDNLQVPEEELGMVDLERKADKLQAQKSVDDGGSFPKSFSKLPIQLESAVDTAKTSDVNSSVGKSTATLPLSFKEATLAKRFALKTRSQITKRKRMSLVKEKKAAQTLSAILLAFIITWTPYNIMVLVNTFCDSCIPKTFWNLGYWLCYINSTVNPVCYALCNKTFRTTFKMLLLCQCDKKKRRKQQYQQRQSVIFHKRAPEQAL
SLC10A2: Ileal sodium/bile acid cotransporter (SLC10A2, Homo sapiens, UniProt Q12908)
Sequence of UniProt Q12908 (whole entry, looked up): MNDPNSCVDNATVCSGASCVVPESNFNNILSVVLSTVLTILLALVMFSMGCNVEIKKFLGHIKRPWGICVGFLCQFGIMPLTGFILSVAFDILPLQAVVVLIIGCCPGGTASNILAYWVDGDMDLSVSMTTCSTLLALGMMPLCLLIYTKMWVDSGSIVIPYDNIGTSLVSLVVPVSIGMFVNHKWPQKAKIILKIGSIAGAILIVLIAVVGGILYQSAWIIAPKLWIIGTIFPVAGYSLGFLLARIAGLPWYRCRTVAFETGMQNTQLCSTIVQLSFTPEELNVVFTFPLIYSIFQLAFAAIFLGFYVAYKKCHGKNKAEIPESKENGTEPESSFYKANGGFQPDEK
CHRM1: Muscarinic acetylcholine receptor M1 (CHRM1, Homo sapiens, UniProt P11229)
Sequence of UniProt P11229 (whole entry, looked up): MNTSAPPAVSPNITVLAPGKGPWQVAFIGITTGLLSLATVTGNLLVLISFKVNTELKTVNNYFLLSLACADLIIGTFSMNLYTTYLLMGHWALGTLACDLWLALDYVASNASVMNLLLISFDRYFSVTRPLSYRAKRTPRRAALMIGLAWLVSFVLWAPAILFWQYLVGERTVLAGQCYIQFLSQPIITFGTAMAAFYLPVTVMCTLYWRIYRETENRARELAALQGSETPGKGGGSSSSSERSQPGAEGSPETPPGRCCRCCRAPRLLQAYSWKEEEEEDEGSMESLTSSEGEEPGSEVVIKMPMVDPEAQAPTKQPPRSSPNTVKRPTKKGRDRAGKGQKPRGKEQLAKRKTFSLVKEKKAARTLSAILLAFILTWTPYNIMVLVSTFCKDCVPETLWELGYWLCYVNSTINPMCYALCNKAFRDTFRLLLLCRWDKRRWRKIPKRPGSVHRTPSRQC
ADORA3: Adenosine receptor A3 (ADORA3, Homo sapiens, UniProt P0DMS8)
Sequence of UniProt P0DMS8 (whole entry, looked up): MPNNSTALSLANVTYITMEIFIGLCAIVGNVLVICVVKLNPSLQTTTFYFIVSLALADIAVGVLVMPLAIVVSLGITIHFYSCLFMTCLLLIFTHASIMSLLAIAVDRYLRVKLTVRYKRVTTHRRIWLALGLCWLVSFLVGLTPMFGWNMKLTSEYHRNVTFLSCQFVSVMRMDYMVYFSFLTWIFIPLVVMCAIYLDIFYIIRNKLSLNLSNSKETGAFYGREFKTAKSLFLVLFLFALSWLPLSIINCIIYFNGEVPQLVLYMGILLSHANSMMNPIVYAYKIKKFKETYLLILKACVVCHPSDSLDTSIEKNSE
PTPN1: Tyrosine-protein phosphatase non-receptor type 1 (PTPN1, Homo sapiens, UniProt P18031)
Sequence of UniProt P18031 (whole entry, looked up): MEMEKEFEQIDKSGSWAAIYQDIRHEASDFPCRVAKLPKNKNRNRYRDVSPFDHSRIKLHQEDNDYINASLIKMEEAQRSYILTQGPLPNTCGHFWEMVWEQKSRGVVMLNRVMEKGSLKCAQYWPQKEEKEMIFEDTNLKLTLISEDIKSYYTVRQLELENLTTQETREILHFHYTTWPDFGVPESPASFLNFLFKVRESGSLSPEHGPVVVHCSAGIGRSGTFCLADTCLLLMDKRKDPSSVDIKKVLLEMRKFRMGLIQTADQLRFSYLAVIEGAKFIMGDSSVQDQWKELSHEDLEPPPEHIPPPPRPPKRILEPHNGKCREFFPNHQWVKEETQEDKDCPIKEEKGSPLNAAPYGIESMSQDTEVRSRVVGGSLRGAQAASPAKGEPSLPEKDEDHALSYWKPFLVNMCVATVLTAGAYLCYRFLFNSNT
Hypoxanthine-guanine phosphoribosyltransferase: Hypoxanthine-guanine phosphoribosyltransferase (Trypanosoma cruzi, UniProt Q4DGA3)
Drd2: D(2) dopamine receptor (Drd2, Rattus norvegicus, UniProt P61169)
Sequence of UniProt P61169 (whole entry, looked up): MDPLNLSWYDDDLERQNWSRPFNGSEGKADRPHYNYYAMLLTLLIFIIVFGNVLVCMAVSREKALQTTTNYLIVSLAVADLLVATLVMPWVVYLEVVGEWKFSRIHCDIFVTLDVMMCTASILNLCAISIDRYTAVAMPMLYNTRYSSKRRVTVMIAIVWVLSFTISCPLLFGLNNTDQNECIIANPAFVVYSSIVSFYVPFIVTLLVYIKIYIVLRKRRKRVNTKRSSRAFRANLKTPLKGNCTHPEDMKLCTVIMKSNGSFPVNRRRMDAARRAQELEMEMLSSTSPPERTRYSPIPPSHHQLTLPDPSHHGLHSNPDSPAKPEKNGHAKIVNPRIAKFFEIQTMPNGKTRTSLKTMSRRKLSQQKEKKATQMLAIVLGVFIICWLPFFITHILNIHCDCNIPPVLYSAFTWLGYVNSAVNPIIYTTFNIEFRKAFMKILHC
Sequence of UniProt Q27793 (whole entry, looked up): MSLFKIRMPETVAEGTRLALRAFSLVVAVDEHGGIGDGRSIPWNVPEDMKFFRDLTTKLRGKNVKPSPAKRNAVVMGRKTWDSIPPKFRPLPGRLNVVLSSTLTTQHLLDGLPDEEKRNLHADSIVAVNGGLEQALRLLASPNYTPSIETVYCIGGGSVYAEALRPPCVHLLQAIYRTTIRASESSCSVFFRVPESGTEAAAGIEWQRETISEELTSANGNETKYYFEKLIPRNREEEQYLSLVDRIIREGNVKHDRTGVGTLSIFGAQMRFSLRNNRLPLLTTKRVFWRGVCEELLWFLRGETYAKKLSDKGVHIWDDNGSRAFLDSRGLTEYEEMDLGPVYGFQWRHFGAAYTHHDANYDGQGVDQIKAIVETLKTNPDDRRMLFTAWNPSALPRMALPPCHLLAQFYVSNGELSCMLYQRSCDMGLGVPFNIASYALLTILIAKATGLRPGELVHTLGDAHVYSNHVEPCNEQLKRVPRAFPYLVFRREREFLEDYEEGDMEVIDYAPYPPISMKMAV
Sequence of UniProt Q01726 (whole entry, looked up): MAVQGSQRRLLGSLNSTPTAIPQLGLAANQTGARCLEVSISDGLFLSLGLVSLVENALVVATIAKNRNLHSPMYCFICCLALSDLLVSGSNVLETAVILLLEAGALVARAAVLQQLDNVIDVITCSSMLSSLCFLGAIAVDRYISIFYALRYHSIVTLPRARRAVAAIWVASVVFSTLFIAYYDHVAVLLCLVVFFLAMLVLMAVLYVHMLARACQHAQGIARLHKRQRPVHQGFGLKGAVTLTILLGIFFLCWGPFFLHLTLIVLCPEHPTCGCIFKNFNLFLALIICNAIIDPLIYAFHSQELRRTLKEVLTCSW
Sequence of UniProt Q9R0C9 (whole entry, looked up): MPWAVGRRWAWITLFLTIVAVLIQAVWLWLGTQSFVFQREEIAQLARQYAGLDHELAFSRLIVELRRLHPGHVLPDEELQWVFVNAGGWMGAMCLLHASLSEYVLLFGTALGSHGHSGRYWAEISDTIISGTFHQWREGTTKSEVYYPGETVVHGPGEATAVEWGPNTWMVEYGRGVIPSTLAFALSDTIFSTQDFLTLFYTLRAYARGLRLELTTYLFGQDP
Sequence of UniProt P47746 (whole entry, looked up): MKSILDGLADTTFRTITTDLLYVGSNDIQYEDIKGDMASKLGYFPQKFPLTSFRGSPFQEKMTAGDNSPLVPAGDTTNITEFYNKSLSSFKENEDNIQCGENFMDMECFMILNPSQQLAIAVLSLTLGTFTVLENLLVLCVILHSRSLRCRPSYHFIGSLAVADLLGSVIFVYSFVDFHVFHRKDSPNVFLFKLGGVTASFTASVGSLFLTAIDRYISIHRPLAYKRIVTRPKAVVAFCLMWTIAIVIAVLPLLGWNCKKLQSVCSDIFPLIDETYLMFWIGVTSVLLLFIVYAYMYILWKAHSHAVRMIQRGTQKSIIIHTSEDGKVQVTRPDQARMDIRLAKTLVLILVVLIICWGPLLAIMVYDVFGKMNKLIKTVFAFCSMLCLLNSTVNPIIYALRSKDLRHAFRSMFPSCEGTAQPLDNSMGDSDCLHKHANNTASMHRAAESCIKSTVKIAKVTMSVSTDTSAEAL

CC(=O)N[C@@H](CC(=O)O)C(=O)N[C@@H](CCCNC(=N)N)C(=O)N[C@@H](C)C(=O)N[C@H](C=O)CC(=O)O — Ki (CASP3; enzyme activity, inhibitor, fluorescence; pH 7): 0.214 µM
O=C1NC(Cc2c[nH]c3c(Cl)cccc23)C(=O)N1Cc1ccccc1 (racemic) — Ki (Receptor-interacting serine/threonine-protein kinase 1 (RIPK1, Homo sapiens, UniProt Q13546); binding, fluorescence polarisation competition; together with: fluorescein-necrostatin-1): 3.4 ± 0.6 µM
FC(F)(F)c1ccc(NC(=S)Nc2ccc3[nH]cnc3c2)cc1 — Ki (Beta-glucuronidase (uidA, Escherichia coli, UniProt P05804); enzyme activity, inhibitor, absorbance): 1.64 µM
CN1CCN(CCCCC2CCN(CC(=O)N3c4ccccc4NC(=O)c4ccccc43)CC2)CC(N)C1 (stereo not shown) — Ki (CHRM5; ligand displacement, radioligand): 0.138 µM
O=c1c2c(O)cc(O)cc2oc2oc3cc(O)ccc3c12 — Ki (alpha-glucosidase; inhibitor, Dixon plot): 45 µM
CC(=O)N[C@H](C(=O)N[C@@H](CCCCN)C(=O)N[C@H](C=O)CC(=O)O)C(C)C — Ki (CASP3; enzyme activity, inhibitor, fluorescence; pH 7): > 100 µM
O=C1Nc2ccccc2N(C(=O)CN2CCC(CCCCNCCCCC3CCN(CCCN4C(=O)CCc5ccccc54)CC3)CC2)c2ccccc21 — Ki (CHRM3; ligand displacement, radioligand): 0.138 µM
CC(=O)N[C@@H](CCCNC(=N)N)C(=O)N[C@@H](C)C(=O)N[C@H](C=O)CC(=O)O — Ki (CASP3; enzyme activity, inhibitor, fluorescence; pH 7): > 100 µM
C/C(=N\OCCCCN1CCCCC1)c1cccc(C(F)(F)F)c1 — Ki (Sigma non-opioid intracellular receptor 1 (Sigmar1, Rattus norvegicus, UniProt Q9R0C9); binding): 0.0432 ± 0.00458 µM
CNC(=O)C1CCN(c2cc(C)c(F)cc2NC(=O)c2ccc(-c3cc(O)ccc3C)c(C)c2)CC1 — Ki (Ephrin type-B receptor 3 (EPHB3, Homo sapiens, UniProt P54753); cell-free assay, TR-FRET): 0.128 µM
CC(=O)N[C@@H](CC(C)C)C(=O)N[C@@H](CC(=O)O)C(=O)N[C@H](C(=O)N1CCC[C@H]1C(=O)N[C@H](C=O)CC(=O)O)C(C)C — Ki (CASP3; enzyme activity, inhibitor, fluorescence; pH 7): 0.00692 µM
Cc1ccc(NC(=O)CC[C@H](NC(=O)CC[C@@H](C)[C@H]2CC[C@H]3[C@@H]4[C@H](O)C[C@@H]5C[C@H](O)CC[C@]5(C)[C@H]4CC[C@]23C)C(=O)OCc2ccccc2)c(C)n1 — Ki (SLC10A2; taurocholate uptake, inhibitor; ASBT-MDCK; 10 min, together with: taurocholate 2.5 µM): 28.1 µM
CN1CCC=C(c2nsnc2OCCCCCNC(=O)c2ccc(C(=O)NCCCCCOc3nsnc3C3=CCCN(C)C3)cc2)C1 — Ki (CHRM1; ligand displacement, radioligand): 0.0191 µM
COc1ccc(NC(=O)CC[C@H](NC(=O)CC[C@@H](C)[C@H]2CC[C@H]3[C@@H]4[C@H](O)C[C@@H]5C[C@H](O)CC[C@]5(C)[C@H]4CC[C@]23C)C(=O)O)cn1 — Ki (SLC10A2; taurocholate uptake, inhibitor; ASBT-MDCK; 10 min, together with: taurocholate 2.5 µM): 8.94 µM and < 10 µM
COc1ccc(CCCN[C@@H]2CCC[C@H]2CN[C@H]2CCC[C@@H]2CNCCCCN[C@@H]2CCC[C@H]2CN)cc1 — Ki (Amine oxidase [flavin-containing] B (MAOB, Homo sapiens, UniProt P27338); enzyme activity, inhibitor): > 500 µM
CCOC(=O)[C@](CC)(CCCSCCOCCOCCNC(=O)c1ccc(C(=O)[O-])c(C2=C3C=CC(=[N+](C)C)C=C3[Si](C)(C)c3cc(N(C)C)ccc32)c1)NC(=O)c1ccc(C2CC2)c(Cc2ccc(F)cc2)n1 — Ki (Cannabinoid receptor 1 (Cnr1, Mus musculus, UniProt P47746); ligand displacement, radioligand; cell membranes): 1.89 µM
CNc1nc(C#Cc2ccc(Cl)s2)nc2c1ncn2[C@@H]1O[C@H](CO)[C@@H](O)[C@H]1O — Ki (ADORA3; ligand displacement, radioligand; cell membranes): 0.0037 µM
OC[C@@H]1[C@@H](O)[C@H](O)[C@@H](O)CN1CCCCCOCC12CC3CC(CC(C3)C1)C2 — Ki (Cytosolic beta-glucosidase (GBA3, Homo sapiens, UniProt Q9H227); enzyme activity, inhibitor): 27.6 µM
O=C1Nc2ccccc2N(C(=O)CN2CCC(CCCCN3CCN(CCCCOC(=O)C4c5ccccc5Oc5ccccc54)CC3)CC2)c2ccccc21 — Ki (CHRM5; ligand displacement, radioligand): 0.0933 µM
Nc1ncnc2c1ncn2[C@@H]1O[C@H](C(=O)NCCF)[C@@H](O)[C@H]1O — Ki (Adenosine receptor A1 (ADORA1, Homo sapiens, UniProt P30542); ligand displacement, radioligand; cell membranes): 0.0034 µM
N#Cc1c(N)nc(SCc2ncc[nH]2)c(C#N)c1-c1cccc(F)c1 — Ki (ADORA3; ligand displacement, radioligand; cell membranes): 0.261 µM
O=C1Nc2ccccc2N(C(=O)CN2CCC(CCCCN3CCC(OC(=O)C(c4ccccc4)c4ccccc4)CC3)CC2)c2ccccc21 — Ki (CHRM1; ligand displacement, radioligand): 0.0209 µM
CCCCOc1ccc(C(=O)OCCN2CC=CCC2)cc1 — Ki (CHRM1; ligand displacement, radioligand; cell membranes): 6.46 µM
C[C@@H]1O[C@@H](O[C@H]2C(=O)c3c(O)cc(O)cc3O[C@@H]2c2ccc(O)cc2)[C@H](O)[C@H](O)[C@H]1O — Ki (PTPN1; enzyme activity, inhibitor): 1.16 µM
CNC(=O)c1ccc(-c2cccc3c2OC(CN)C3)cc1 (stereo not shown) — Ki (Beta-2 adrenergic receptor (ADRB2, Homo sapiens, UniProt P07550); binding, radioligand displacement; SNAP-tagged receptor HEK membranes; together with: 1 nM [3H]dihydroalprenolol): 1 µM
CN1CCC=C(c2nsnc2OCCCN2CCN(CCCCC3CCN(CC(=O)N4c5ccccc5NC(=O)c5ccccc54)CC3)CC2)C1 — Ki (CHRM3; ligand displacement, radioligand): 0.0132 µM
C[C@H](CCC(=O)O)[C@H]1CC[C@H]2[C@@H]3[C@H](O)C[C@H]4C[C@H](OC(=O)CCC(=O)O)CC[C@]4(C)[C@H]3CC[C@]12C — Ki (SLC10A2; taurocholate uptake, inhibitor; MDCK expressing SLC10A2): 25 to 100 µM
O=c1[nH]cnc2c(CNCCCP(=O)(O)O)c[nH]c12 — Ki (Hypoxanthine-guanine phosphoribosyltransferase): 0.71 ± 0.17 µM
CN1CC(=O)N[C@@H](CCCNC(=N)N)C(=O)NCC(=O)N[C@@H](CS)C(=O)NCC(=O)N[C@@H](CC(N)=O)C1=O — Ki (Aminopeptidase N (ANPEP, Homo sapiens, UniProt P15144); enzyme activity, inhibitor): 8.9 µM
CC[C@H](C)[C@H](NC(C)=O)C(=O)N[C@H](C(=O)N[C@H](C(=O)N[C@@H](CCCCN)C(=O)N[C@H](C=O)CC(=O)O)C(C)C)[C@@H](C)O — Ki (CASP3; enzyme activity, inhibitor, fluorescence; pH 7): 0.891 µM
Nc1nc2c([C@@H]3N[C@H](COP(=O)(O)O)[C@@H](O)[C@H]3O)c[nH]c2c(=O)[nH]1 — Ki (Hypoxanthine-guanine phosphoribosyltransferase): 1.16 ± 0.39 µM
Fc1cc(OCCCN2CCN(c3cccc4sccc34)CC2)ccc1CN1CCOCC1 — Ki (Drd2; cell-free assay, radioligand): 0.0246 µM
O=C(OC1CCN(CCOCCOCCN2CCC(OC(=O)C(c3ccccc3)c3ccccc3)CC2)CC1)C(c1ccccc1)c1ccccc1 — Ki (CHRM5; ligand displacement, radioligand): 1.35 µM
CCCCOc1ccc(C(=O)OCC[N+]2(C)CC=CCC2)cc1 (stereo not shown) — Ki (CHRM3; ligand displacement, radioligand; cell membranes): 5.89 µM
CC(C)=CCc1cc(C2CC(=O)c3c(O)cc(O)cc3O2)c2c(c1O)C=CC(C)(C)O2 (stereo not shown) — Ki (PTPN1; enzyme activity, inhibitor): 6.38 µM
CC(=O)N[C@@H](CCC(N)=O)C(=O)N[C@@H](CC(=O)O)C(=O)N[C@H](C(=O)N[C@@H](CCCNC(=N)N)C(=O)N[C@H](C=O)CC(=O)O)[C@@H](C)O — Ki (CASP3; enzyme activity, inhibitor, fluorescence; pH 7): 0.0724 µM
COc1cc(CN2CCCC2)ccc1OCCN1CCN(c2cccc3sccc23)CC1 — Ki (Drd2; cell-free assay, radioligand): 0.0825 µM
N=C(N)Nc1nc2ccc(Cl)cc2[nH]1 — Ki (Bifunctional dihydrofolate reductase-thymidylate synthase, DHFR domain (Trypanosoma cruzi, UniProt Q27793); enzyme activity, competitive inhibitor; together with: dihydrofolate 60 µM, NADPH 100 µM): 10.6 µM
CC[C@H](C)[C@H](NC(=O)CN)C(=O)N[C@H](C(=O)N[C@@H](CC(N)=O)C(=O)N[C@H](C(=O)N[C@@H](CC(C)C)C(=O)N[C@@H](CCC(N)=O)C(=O)N[C@@H](CCCCN)C(=O)N[C@@H](Cc1ccc(O)cc1)C(=O)N[C@@H](Cc1ccc(O)cc1)C(=O)N[C@@H](CO)C(=O)N[C@@H](CCCNC(=N)N)C(=O)N[C@H](C(=O)N[C@@H](CCC(N)=O)C(=O)NCC(=O)NCC(=O)N[C@@H](CCC(N)=O)C(=O)N[C@@H](CO)C(=O)N[C@@H](C)C(=O)N[C@H](C(=O)N[C@@H](CC(C)C)C(=O)N[C@@H](CO)C(=O)N[C@@H](CO)C(=O)N[C@@H](CC(C)C)C(=O)N1CCC[C@H]1C(=O)N[C@@H](CCC(N)=O)C(=O)N[C@@H](CCC(=O)O)C(=O)N[C@@H](CCC(=O)O)C(=O)N[C@@H](CCC(N)=O)C(=O)N[C@H](C(=O)NCC(=O)N[C@@H](CCCCN)C(=O)N[C@@H](CO)C(=O)N[C@@H](CO)C(=O)N[C@H](C(=O)N[C@@H](CCCNC(=N)N)C(=O)NCC(=O)N[C@@H](CCCNC(=N)N)C(=O)N[C@@H](CCCCN)C(=O)N[C@@H](CO)C(=O)N[C@@H](CO)C(=O)N[C@@H](CCC(N)=O)C(=O)N[C@@H](CCC(N)=O)C(=O)N[C@@H](CCC(N)=O)C(=O)N[C@@H](CCC(N)=O)C(N)=O)[C@@H](C)O)[C@@H](C)CC)C(C)C)C(C)C)[C@@H](C)O)[C@@H](C)CC — Ki (Melanocyte-stimulating hormone receptor (MC1R, Homo sapiens, UniProt Q01726); HEK-293T transfected; 2 h, 37 °C, together with: Eu-NDP-MSH): > 5 µM
CC(C)C[C@H](NC(=O)[C@H](CC(C)C)NC(=O)[C@H](Cc1c[nH]cn1)NC(=O)[C@H](CC(C)C)NC(=O)[C@@H](NC(=O)[C@H](CCC(=O)O)NC(=O)[C@H](CO)NC(=O)[C@H](Cc1c[nH]c2ccccc12)NC(=O)[C@H](C)NC(=O)[C@@H](N)[C@@H](C)O)C(C)C)C(=O)N[C@@H](CO)C(=O)N[C@@H](CCCNC(=N)N)C(=O)NCC(=O)NCC(=O)NCC(=O)N[C@@H](CO)C(=O)N[C@@H](CCCCN)C(N)=O — Ki (ATP2B2 (Homo sapiens, UniProt Q01814); Ca2+-Mg2+-ATPase activity, inhibitor; Sf9 cell microsomes): 167 ± 67 µM
O=C1Nc2ccccc2N(C(=O)CN2CCC(CCCCN3CCC(N4CCC(n5c(=O)[nH]c6ccccc65)CC4)CC3)CC2)c2ccccc21 — Ki (CHRM1; ligand displacement, radioligand): 0.00269 µM
CC(=O)N[C@H](C(=O)N[C@H](C(=O)N[C@@H](CN)C(=O)N[C@H](C=O)CC(=O)O)C(C)C)[C@@H](C)O — Ki (CASP3; enzyme activity, inhibitor, fluorescence; pH 7): 37.2 µM
COC(=O)[C@H](CCCC[N+](C)(C)CCCCN(O)C(=O)/C=C/C(=O)O)NC(=O)OCc1ccccc1 — Ki (Lysine-specific demethylase 2A (KDM2A, Homo sapiens, UniProt Q9Y2K7); ligand displacement, FP): 3.1 µM

For quick reference, copied from above:
O=c1[nH]cnc2c(CNCCCP(=O)(O)O)c[nH]c12 — Ki (Hypoxanthine-guanine phosphoribosyltransferase): 0.71 ± 0.17 µM
CN1CC(=O)N[C@@H](CCCNC(=N)N)C(=O)NCC(=O)N[C@@H](CS)C(=O)NCC(=O)N[C@@H](CC(N)=O)C1=O — Ki (Aminopeptidase N (ANPEP, Homo sapiens, UniProt P15144); enzyme activity, inhibitor): 8.9 µM
CC[C@H](C)[C@H](NC(C)=O)C(=O)N[C@H](C(=O)N[C@H](C(=O)N[C@@H](CCCCN)C(=O)N[C@H](C=O)CC(=O)O)C(C)C)[C@@H](C)O — Ki (CASP3; enzyme activity, inhibitor, fluorescence; pH 7): 0.891 µM
Nc1nc2c([C@@H]3N[C@H](COP(=O)(O)O)[C@@H](O)[C@H]3O)c[nH]c2c(=O)[nH]1 — Ki (Hypoxanthine-guanine phosphoribosyltransferase): 1.16 ± 0.39 µM
Fc1cc(OCCCN2CCN(c3cccc4sccc34)CC2)ccc1CN1CCOCC1 — Ki (Drd2; cell-free assay, radioligand): 0.0246 µM
